{"data": "Measurements pooled from the literature", "note": "Each line is one published result; not all experiments were run side by side. Several values in a cell are separate wells, animals, samples, runs or records. Numbers after ± are the reported error."}
{"SMILES": "O=C(Nc1cc(OCCN2CCCC2)c2ccccc2n1)c1cc(Cl)cc(C(=O)Nc2cc(OCCN3CCCC3)c3ccccc3n2)n1", "tested on": "c-myc G-quadruplex DNA", "assay": "FRET melting", "conditions": "1 µM, pH 7.4, with: 60 mM potassium", "quantity": "ΔTm", "result": "14.5 ± 0.8 K"}
{"SMILES": "COc1cc(NC(C)=O)c(Cl)cc1C(=O)Nc1nccs1", "tested on": "SKCa channel", "conditions": "10 µM", "quantity": "inhibition", "result": "-3.7%"}
{"SMILES": "FC(F)(F)c1ccc2nccc(NCCc3ccccc3)c2c1", "tested on": "CDK8/CDK19", "assay": "NF-κB reporter gene", "test system": "293-NFκB-Luc", "conditions": "3 h, with: TNF-α 10 ng/mL", "quantity": "IC50", "result": "> 5 µM"}
{"SMILES": "NC1(C(=O)N[C@@H](CCO)c2ccc(Cl)cc2)CCN(c2nc[nH]c3nccc2-3)CC1", "tested on": "Akt", "assay": "inhibitor", "test system": "mouse BT-474 xenograft", "conditions": "intraperitoneal, 30 mg/kg", "quantity": "time before decline", "result": "4 h"}
{"SMILES": "C[C@H]1O[C@H](O[C@H]2[C@H](O)[C@@H](O)[C@@H](O[C@H]3[C@H](O)[C@@H](O)C(O)O[C@@H]3CO)O[C@@H]2CO)[C@H](O)[C@@H](O)[C@@H]1N[C@H]1C=C(CO)[C@@H](O)[C@H](O)[C@H]1O (some centres unmarked)", "tested on": "yeast alpha-glucosidase", "assay": "enzyme activity", "conditions": "with: pNPG", "quantity": "IC50", "result": "51.4 µM"}
{"SMILES": "NCCOc1cc(NC(=O)c2cc(OCc3ccc(F)cc3)cc(C(=O)Nc3cc(OCCN)c4ccccc4n3)n2)nc2ccccc12", "tested on": "c-myc G-quadruplex DNA", "assay": "FRET melting", "conditions": "1 µM, pH 7.4, with: 60 mM potassium", "quantity": "ΔTm", "result": "2.3 ± 0.3 K"}
{"SMILES": "[Cl-].[Cl-].[Pt+2].[Ru+2].c1ccc(-c2nc3ccccc3nc2-c2ccccn2)nc1.c1cnc2c(c1)ccc1cccnc12.c1cnc2c(c1)ccc1cccnc12", "tested on": "pcDNA supercoiled plasmid", "assay": "agarose gel electrophoresis", "conditions": "20 µM, photoinduced cleavage, with: 0.1 µM pcDNA", "quantity": "supercoiled DNA", "result": "88.3%"}
{"SMILES": "CCN(CC)c1ccc(/C=N/c2ccc(Br)cc2)c(O)c1", "tested on": "yeast alpha-glucosidase", "assay": "enzyme activity", "conditions": "with: pNPG", "quantity": "IC50", "result": "150 µM"}
{"SMILES": "c1coc(-c2n[nH]cc2-c2ccnc3ccccc23)c1", "tested on": "SHA3 (Candida albicans)", "assay": "kinase binding, MIB/MS competition", "test system": "Candida albicans lysate", "conditions": "10 µM", "how to read": "relative to: DMSO", "quantity": "log2 fold change", "result": -0.18}
{"SMILES": "NCCCOc1cc(NC(=O)c2cc(OCc3c[nH]nn3)cc(C(=O)Nc3cc(OCCCN)c4ccccc4n3)n2)nc2ccccc12", "tested on": "c-myc G-quadruplex DNA", "assay": "FRET melting", "conditions": "1 µM, pH 7.4, with: 60 mM potassium", "quantity": "ΔTm", "result": "5.9 ± 0.3 K"}
{"SMILES": "[Cl-].[Cl-].[Pt+2].[Ru+2].c1ccc(-c2nccnc2-c2ccccn2)nc1.c1cnc2c(c1)ccc1cccnc12.c1cnc2c(c1)ccc1cccnc12", "tested on": "pcDNA supercoiled plasmid", "assay": "agarose gel electrophoresis", "conditions": "20 µM, photoinduced cleavage, with: 0.1 µM pcDNA", "quantity": "nicked circular DNA", "result": "22.6%"}
{"SMILES": "CC[S+]([O-])c1nc(-c2ccccc2)cc(C(F)(F)F)n1 (centres unmarked)", "tested on": "importin beta-1", "assay": "SREBP1 nuclear import, high content imaging", "test system": "HeLa Kyoto", "conditions": "0.16 µM, 3 h, with: glucose and MG132", "quantity": "cells with nuclear SREBP1", "result": "84.4% and 83.2% and 87.9% and 90.9%"}
{"SMILES": "C#CCOc1cc(C(=O)Nc2cc(OCCN)c3ccccc3n2)nc(C(=O)Nc2cc(OCCN)c3ccccc3n2)c1", "tested on": "c-myc G-quadruplex DNA", "assay": "FRET melting", "conditions": "1 µM, pH 7.4, with: 60 mM potassium", "quantity": "ΔTm", "result": "7.4 ± 0.6 K"}
{"SMILES": "O=C1Nc2cc(Br)ccc2/C1=C1/Nc2ccccc2/C1=N\\O", "tested on": "GSK3", "assay": "inhibitor, immunoblot", "test system": "HEK293 stably expressing Hwa-HA", "conditions": "1 µM, 24 h", "quantity": "Hwa phosphorylation", "result": "decreased"}
{"SMILES": "Cn1cc(-c2ccc(-c3cncc(Cl)c3N3CCC4(CCNC4=O)CC3)cc2)cn1", "tested on": "COLO 205", "assay": "microarray, item: IFIT3", "conditions": "concentration not given, 6 h, gene set RIG-G", "how to read": "relative to: untreated cells", "quantity": "fold change in expression", "result": 2.21}
{"SMILES": "COc1cc(C(=O)Nc2cc(OC)c3ccccc3n2)nc(C(=O)Nc2cc(OC)c3ccccc3n2)c1", "tested on": "c-myc G-quadruplex DNA", "assay": "FRET melting", "conditions": "1 µM, pH 7.4, with: 60 mM potassium", "quantity": "ΔTm", "result": "0.4 ± 0.2 K"}
{"SMILES": "Brc1ccc2nccc(NCCc3ccccc3)c2c1", "tested on": "CDK8/CDK19", "assay": "NF-κB reporter gene", "test system": "293-NFκB-Luc", "conditions": "3 h, with: TNF-α 10 ng/mL", "quantity": "IC50", "result": "> 5 µM"}
{"SMILES": "[Cl-].[Cl-].[Pt+2].[Ru+2].c1ccc(-c2nc3cc4ccccc4cc3nc2-c2ccccn2)nc1.c1cnc2c(c1)ccc1cccnc12.c1cnc2c(c1)ccc1cccnc12", "tested on": "pcDNA supercoiled plasmid", "assay": "agarose gel electrophoresis", "conditions": "10 µM, photoinduced cleavage, with: 0.1 µM pcDNA", "quantity": "supercoiled DNA", "result": "91.5%"}
{"SMILES": "O=C(O)CCCOc1cccc(CNC(=O)C#Cc2cn(Cc3ccc(C(=O)O)cc3)c(=O)[nH]c2=O)c1", "tested on": "MMP-14", "assay": "inhibitor, FRET", "conditions": "10 µM", "quantity": "remaining MMP-14 activity", "result": "101 ± 1%"}
{"SMILES": "CCS(=O)(=O)c1nc(C2CC2)cc(C(F)(F)F)n1", "tested on": "importin beta-1", "assay": "SREBP1 nuclear import, high content imaging", "test system": "HeLa Kyoto", "conditions": "15.82 µM, 3 h, with: glucose and MG132", "quantity": "cells with nuclear SREBP1", "result": "90.7% and 89.1% and 91.2% and 87.8%"}
{"SMILES": "CCCN(CCC)C1CCc2ccc(O)cc2C1 (racemic)", "tested on": "dopamine D2-like autoreceptors", "assay": "inhibition of dopamine release, agonist, fast-scan cyclic voltammetry", "test system": "Mus musculus, nucleus accumbens shell slice", "conditions": "single pulse stimulation", "quantity": "EC50", "result": "0.044 ± 0.008 µM"}
{"SMILES": "CC(Nc1nc(N2CCCC2)nc2ccccc12)c1ccccc1 (centres unmarked)", "tested on": "importin beta-1", "assay": "SREBP1 nuclear import, high content imaging", "test system": "HeLa Kyoto", "conditions": "1.58 µM, 3 h, with: glucose and MG132", "quantity": "cells with nuclear SREBP1", "result": "92.1% and 91.2% and 89.6% and 87%"}
{"SMILES": "Oc1ccccc1-c1n[nH]cc1-c1ccnc2ccccc12", "tested on": "KIN3 (Candida albicans)", "assay": "kinase binding, MIB/MS competition", "test system": "Candida albicans lysate", "conditions": "10 µM", "how to read": "relative to: DMSO", "quantity": "log2 fold change", "result": 0.4}
{"note": "Excerpt of the above:"}
{"SMILES": "FC(F)(F)c1ccc2nccc(NCCc3ccccc3)c2c1", "tested on": "CDK8/CDK19", "assay": "NF-κB reporter gene", "test system": "293-NFκB-Luc", "conditions": "3 h, with: TNF-α 10 ng/mL", "quantity": "IC50", "result": "> 5 µM"}
{"SMILES": "[Cl-].[Cl-].[Pt+2].[Ru+2].c1ccc(-c2nc3ccccc3nc2-c2ccccn2)nc1.c1cnc2c(c1)ccc1cccnc12.c1cnc2c(c1)ccc1cccnc12", "tested on": "pcDNA supercoiled plasmid", "assay": "agarose gel electrophoresis", "conditions": "20 µM, photoinduced cleavage, with: 0.1 µM pcDNA", "quantity": "supercoiled DNA", "result": "88.3%"}
{"SMILES": "[Cl-].[Cl-].[Pt+2].[Ru+2].c1ccc(-c2nccnc2-c2ccccn2)nc1.c1cnc2c(c1)ccc1cccnc12.c1cnc2c(c1)ccc1cccnc12", "tested on": "pcDNA supercoiled plasmid", "assay": "agarose gel electrophoresis", "conditions": "20 µM, photoinduced cleavage, with: 0.1 µM pcDNA", "quantity": "nicked circular DNA", "result": "22.6%"}
